Values quoted from earlier work, collected from citations in different studies.
Each line is one published result; not all experiments were run side by side. Numbers after ± are the reported error.

| Compound | cell line | read-out | method | refers to | time | added | IC50 [µM] |
| --- | --- | --- | --- | --- | --- | --- | --- |
| C[C@@H]1COCCN1c1nc(-c2cnc(N)nc2)nc2c1C[C@@H]1COCCN21 | A2058 | – | – | phospho-S6 Ser235/236 | – | – | 0.055 ± 0.0055 |
| CCC1=C(O)c2c(oc(-c3ccc4ccccc4c3)cc2=O)C(CC)(CC)C1=O | HepG2 | cell growth | SRB | – | – | – | 1.55 |
| CC(=O)OC1CC2C3C(OC(C)=O)C4OC45C(O)C=CC(=O)C5(C)C3CCC2(C)C1C(C)(O)C1CC(C)=C(C)C(=O)O1 (stereo not shown) | KB | cell growth | – | – | – | – | 0.76 |
| COc1cc(/C=N/N2C(=O)c3ccccc3NC2c2ccc(O)c(OC)c2)ccc1O (stereo not shown) | human renal tubule TH-1 | cytotoxicity | – | – | – | – | > 1000 |
| CCCCn1cc(C(=O)O)c(=O)c2cc(F)c(Nc3cccc(Cl)c3)c(N)c21 | PANC-1 | – | – | – | – | – | < 50 |
| CCCCCCCCCCCCCCCCCC1=C(C(=O)OC)C(c2cccc(O)c2)NC(=S)N1 (stereo not shown) | glioma cell lines | cell growth | – | – | – | – | 6.85 |
| COc1cc(/C=C/C(=O)NCCc2ccc(O)c(O)c2)ccc1O | RAW264.7 | nitric oxide production | – | – | 24 h | LPS 100 ng/mL | 15.1 ± 0.805 |
| CCC1=C(O)c2c(oc(-c3ccc4cc(OC)ccc4c3)cc2=O)C(CC)(CC)C1=O | SK-BR-3 | cell growth | SRB | – | – | – | 8.37 |
| COc1cc(NC(=O)/C(C#N)=C/c2c[nH]c3ccccc23)cc(OC)c1OC | Huh-7 | cell growth | – | – | – | – | 5 |
| O=C1NCC(Cc2ccccc2)N(CC2CCCN2CC(CC2CCCCC2)N2CC(Cc3ccc(O)cc3)N(CCc3ccccc3)C(=O)C2=O)C1=O (stereo not shown) | CHO-K1 | viability | – | – | – | – | > 100 |
| Oc1cccc(-c2cccc(O)n2)n1.[Cl-].[Cl-].[Ru+2].c1cnc2c(c1)ccc1cccnc12.c1cnc2c(c1)ccc1cccnc12 | MDA-MB-231 | cell viability | – | – | – | blue light 450 nm, 1 h | 83 |
| COc1ccccc1NC(=O)N[C@H](C(=O)Nc1ccc(C(=O)NO)cc1)c1ccccc1 | U-266 | cell viability | MTT | – | – | – | 5.3 |
| CC1=C(C)C(=O)OC(C(C)(O)C2CCC3C4CC5OC56C(O)C=CC(=O)C6(C)C4CCC32C)C1 (stereo not shown) | K-562R | cell growth | – | – | – | – | 1.23 |
| O=c1c2ccc(-n3cc(-c4ccccc4)nn3)cc2ncn1Cc1ccc(Br)cc1 | HT-29 | – | – | – | – | – | 7.23 |
| O=C1OCC2=C1C(c1ccccc1[N+](=O)[O-])C1=C(N2)C(=O)c2ccccc2C1=O (stereo not shown) | MCF7 cells | cell growth | – | – | – | – | > 2.5 |
| N#CC1=C(N)Nc2c(ccc3[nH]c4ccccc4c23)C12C(=O)N(Cc1cn(Cc3ccc(C(F)(F)F)cc3)nn1)c1ccccc12 (stereo not shown) | HeLa | cell growth | – | – | – | – | 3.54 |
| O=C1OCC2=C1C(c1cccc(Br)c1)C1=C(N2)C(=O)c2ccccc2C1=O (stereo not shown) | HEK293 cells | cell growth | – | – | – | – | 7.2 ± 0.05 |
| CC1=C(CO)C(=O)O[C@@H]([C@@H](C)[C@H]2CC[C@H]3[C@@H]4C[C@H]5O[C@]56[C@@H](O)C=CC(=O)[C@]6(C)[C@H]4CC[C@]23C)C1 | MCF7/BUS | – | – | – | – | – | 0.11 |
| CC1=C2[O][Ru-]([Cl])[O+]=C2C=CN1CCCN1C=CC2=[O+][Ru-]([Cl])[O]C2=C1C.Cc1ccc(C(C)C)cc1.Cc1ccc(C(C)C)cc1 | SW480 | – | MTT | – | – | – | 62 ± 14 |

Repeated from above:
| Compound | cell line | read-out | method | refers to | time | added | IC50 [µM] |
| --- | --- | --- | --- | --- | --- | --- | --- |
| O=C1NCC(Cc2ccccc2)N(CC2CCCN2CC(CC2CCCCC2)N2CC(Cc3ccc(O)cc3)N(CCc3ccccc3)C(=O)C2=O)C1=O (stereo not shown) | CHO-K1 | viability | – | – | – | – | > 100 |
